Measurements pooled from the literature.
Lines come from different studies, so protocols differ. “And” joins repeats or separate records; there may be more than shown. Values after ≈ are worked out from the molar mass of the structure shown.
Organism: Staphylococcus aureus

C=C(NC(=O)c1csc(-c2nc3c(cc2O)-c2nc(cs2)C(=O)NC(C(C)O)C(=O)NC(=C(C)OC)c2nc(cs2)C(=O)NC2c4nc(cs4)C(=O)NC(COC(=O)c4c5c6c(cccc6n4O)COC(=O)C(OC4CC(C)(O)C(N(C)C)C(C)O4)C2OC5)c2nc-3cs2)n1)C(N)=O (centres unmarked)
MIC (MRSA strain 4, vancomycin-induced; 20 generations): 0.0156 µg/mL (≈ 0.0109 µM)

N=C(N)NCCC[C@H](NC(=O)[C@H](Cc1c[nH]c2ccccc12)NC(=O)[C@H](CCCNC(=N)N)NC(=O)[C@H](CCCNC(=N)N)NC(=O)[C@@H]1CCCN1C(=O)[C@H](CCCCN)NC(=O)[C@@H](N)CCCNC(=N)N)C(=O)N[C@@H](Cc1c[nH]c2ccccc12)C(=O)N[C@@H](Cc1c[nH]c2ccccc12)C(=O)N1CCC[C@H]1C(=O)N[C@@H](CCCCN)C(=O)N[C@@H](CCCNC(=N)N)C(=O)N1CCC[C@H]1C(=O)O
log bacterial load (09057, female BALB/c mice, sepsis, lung; intraperitoneal, 20 mg/kg): 5.53 log(CFU/g) and 5.55 log(CFU/g) and 6.41 log(CFU/g) and 5.83 log(CFU/g) and 6.65 log(CFU/g) and 7.07 log(CFU/g)

OB(O)c1ccc(C(F)(F)F)s1
time of death (wild type, Galleria mellonella larvae; concentration not given): 36 h and 6 h and 12 h and 30 h and 18 h and 24 h

c1ccc(CCNC2CCCc3c2[nH]c2ccc(C4CCCCC4)cc32)cc1 (centres unmarked)
MIC (broth microdilution; SG511): 2 µg/mL (≈ 5.37 µM)

CC[C@H](C)[C@@H]1NC(=O)[C@@H]([C@@H](C)O)NC(=O)CNC(=O)[C@H](CC(=O)O)NC(=O)CNC(=O)[C@H](CC(=O)O)NC(=O)CNC(=O)[C@H]2CCCCN2C(=O)[C@@H](NC(=O)[C@H](CC(=O)O)NC(=O)/C=C/CCCCCCCCCC(C)C)CNC(=O)[C@@H]2CCCN2C1=O
MIC (broth microdilution; VISA LIM strain 2, Mueller-Hinton broth, Mg2+ 10 mg/L; 16 h, added: Ca2+ 1.0 mM): 8 to 16 µg/mL (≈ 6.41 to 12.8 µM)

CC1=C[C@@H](C)[C@H]2[C@@H]3C(=O)C(Cl)(Cl)C(=O)[C@H](C)C(=O)O[C@@H](C)/C=C/C=C\[C@@H](C)[C@@H]3C=C[C@@H]2C1
MIC fold change (Newman compound-resistant mutant Mt6; concentration not given; baseline: parent strain): 8

CC(C)CCCCCCCCC/C=C/C(=O)N[C@@H](CC(=O)O)C(=O)N[C@H]1CNC(=O)[C@@H]2CCCN2C(=O)[C@H](C(C)C)NC(=O)[C@@H](CN)NC(=O)CNC(=O)[C@H](CC(=O)O)NC(=O)CNC(=O)[C@H](CC(=O)O)NC(=O)[C@H](CC(=O)O)NC(=O)[C@H]2CCCCN2C1=O
MIC (broth microdilution; BR-VRSA strain 880, Mueller-Hinton broth, Mg2+ 10 mg/L; 16 h, added: Ca2+ 0 mM): > 128 µg/mL

CCCCCCCCCCCCCC(=O)N[C@H]1C(=O)N[C@@H](CN)C(=O)N[C@@H](CO)C(=O)N[C@@H](Cc2ccc(O)cc2)C(=O)O[C@H]1C
MIC (SH1000; added: cardiolipin, molar ratio 0.5): 16 µg/mL
